Experimental data gathered from unrelated publications.
Each line is one published result; not all experiments were run side by side.
UniProt O14730, sequence (whole entry, looked up): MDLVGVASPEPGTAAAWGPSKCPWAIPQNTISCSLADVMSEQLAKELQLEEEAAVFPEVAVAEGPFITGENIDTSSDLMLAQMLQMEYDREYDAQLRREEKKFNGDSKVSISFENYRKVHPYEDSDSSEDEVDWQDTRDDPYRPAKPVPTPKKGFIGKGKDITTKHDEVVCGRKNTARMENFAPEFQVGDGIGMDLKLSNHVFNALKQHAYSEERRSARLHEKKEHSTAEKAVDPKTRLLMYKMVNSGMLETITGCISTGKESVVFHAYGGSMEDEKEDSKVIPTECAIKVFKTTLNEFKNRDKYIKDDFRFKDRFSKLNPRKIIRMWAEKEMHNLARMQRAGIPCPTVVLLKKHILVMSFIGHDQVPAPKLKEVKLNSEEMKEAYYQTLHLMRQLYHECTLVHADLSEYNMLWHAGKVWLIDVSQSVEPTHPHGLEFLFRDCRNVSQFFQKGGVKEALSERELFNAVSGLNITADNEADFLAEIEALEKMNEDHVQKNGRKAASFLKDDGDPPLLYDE
UniProt Q8IWQ3, sequence (whole entry, looked up): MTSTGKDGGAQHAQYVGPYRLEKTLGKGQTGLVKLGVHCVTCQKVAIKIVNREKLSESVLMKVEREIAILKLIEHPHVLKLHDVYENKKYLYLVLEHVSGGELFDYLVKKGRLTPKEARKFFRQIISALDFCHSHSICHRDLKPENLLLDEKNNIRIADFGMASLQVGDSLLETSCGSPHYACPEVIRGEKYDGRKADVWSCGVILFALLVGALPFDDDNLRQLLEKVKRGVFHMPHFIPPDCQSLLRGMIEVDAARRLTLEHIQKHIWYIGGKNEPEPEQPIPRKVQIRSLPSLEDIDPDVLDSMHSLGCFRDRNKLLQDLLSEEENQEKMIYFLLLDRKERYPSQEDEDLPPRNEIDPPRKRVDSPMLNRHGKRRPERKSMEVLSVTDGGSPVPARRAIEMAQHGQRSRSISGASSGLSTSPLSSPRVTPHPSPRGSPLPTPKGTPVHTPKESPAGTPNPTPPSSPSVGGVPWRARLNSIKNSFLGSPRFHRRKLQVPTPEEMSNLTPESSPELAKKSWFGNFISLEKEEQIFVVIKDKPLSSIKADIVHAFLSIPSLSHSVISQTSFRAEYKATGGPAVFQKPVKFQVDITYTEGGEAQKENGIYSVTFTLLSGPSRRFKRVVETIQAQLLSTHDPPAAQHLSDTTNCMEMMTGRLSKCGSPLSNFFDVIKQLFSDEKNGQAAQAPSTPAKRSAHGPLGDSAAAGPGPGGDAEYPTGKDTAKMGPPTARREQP

`CC(=O)N[C@H]1[C@@H](O[C@@H]2O[C@H](C[C@@H](O)[C@H]3O[C@@H](n4ccc(=O)[nH]c4=O)[C@H](O)[C@@H]3O)[C@H](O)[C@H](O)[C@H]2NC(=O)/C=C/CCCCCCCCCC(C)C)O[C@H](CO)[C@@H](O)[C@@H]1O` has an IC50 of 450 nM (Vero; cell growth or viability, WST-1).
The IC50 of `Cc1cc(N(CCO)CCO)ccc1C=O` is reported as over 10 µg/mL (786-0; cell growth or viability).
`O=C1CCP(c2ccccc2)CC1` gave an IC50 of 94300 nM (SW480; cell growth or viability, MTT; 72 h).
`Nc1ncc(-c2nc(N3CCOCC3)nc(N3CCOCC3)n2)c(C(F)F)n1` has a remaining binding of 98% (RIOK3 (Homo sapiens, UniProt O14730); binding, competition with immobilised ligand; 10 µM).
With `COc1cc2cc(c1Cl)N(C)C(=O)C[C@H](OC(=O)[C@H](C)N(C)C(=O)CCS)[C@]1(C)O[C@H]1[C@H](C)[C@@H]1C[C@@](O)(NC(=O)O1)[C@H](OC)/C=C/C=C(\C)C2` the IC50 was 12.9 nM (HUVEC; cell growth or viability, SRB; 48 h).
`N.N.[Cl][Pt][Cl]` gave an IC50 of 2520 nM (JeKo-1; cell growth or viability, ATP luminescence; 72 h).
The IC50 of `Cc1cc(N(CCO)CCO)ccc1C(=O)O` is reported as over 10 µg/mL (786-0; cell growth or viability).
For `COc1c(C)c2c(c(O)c1C/C=C(\C)CCC(=O)O)C(=O)OC2`, the IC50 was 2950 nM (BT-20; cell growth or viability).
The MIC of `COC(=O)c1cc(-c2cccc(NC(=S)Nc3ccccc3)c2)on1` is reported as over 64 µg/mL (Klebsiella pneumoniae; microbial growth, broth dilution; BAA1705).
For `COc1ccc(-c2c(-c3ccc(C#N)c(F)c3)nc(N3CCC(N)CC3)n(C)c2=O)cc1F`, the IC50 was 12000 nM (HEK293; cell growth or viability, resazurin).
`COC(=O)c1cc(-c2cccc(NC(=S)Nc3cccc(Br)c3)c2)on1` gave an MIC of over 64 µg/mL (Klebsiella pneumoniae; microbial growth, broth dilution; BAA1705).
With `[2H]c1c([2H])c([C@]2([2H])CCCN2C(=O)C(C)(C)Oc2ccc3cn[nH]c3c2)c([2H])c([2H])c1C([2H])([2H])[2H]` the remaining binding was 85% (BRSK2 (Homo sapiens, UniProt Q8IWQ3); binding, competition with immobilised ligand; 1 µM).
For `S=P1(C2CCCCC2)CCCCC1`, the IC50 was over 100000 nM (SW480; cell growth or viability, MTT; 72 h).
The IC50 of `CC[C@H](Nc1nc(NCc2cnc(C)cc2C)c2ncn(C(C)C)c2n1)[C@@H](C)O` is reported as 382 nM (HD-MB03; cell growth or viability; 7 days).
For `O=C1CCP(=S)(c2ccccc2)CC1`, the IC50 was 5100 nM (SW480; cell growth or viability, MTT; 72 h).
With `CC(=O)c1c(C)c2cnc(Nc3ccc(C4CCN(CCS(C)(=O)=O)CC4)cn3)nc2n(C2CCCC2)c1=O` the IC50 was 203 nM (ZR-75-1; cell growth or viability, ATP luminescence; 72 h).

For quick reference, copied from above:
The IC50 of `Cc1cc(N(CCO)CCO)ccc1C(=O)O` is reported as over 10 µg/mL (786-0; cell growth or viability).
